Published values of several laboratories.
Lines come from different studies, so protocols differ. ± marks the error that the study gave.

`C=C(CC)C(=O)c1ccc(OCC(=O)NCCNC(=O)COc2ccc(C(=O)C(=C)CC)c(Cl)c2Cl)c(Cl)c1Cl` has an IC50 of ~1.2 µM (CoC1/DDP, cisplatin-resistant; cell growth; 72 h).
With `CCCC(CCC)C(=O)[O][Pt]([NH2])([NH2])([Cl])([Cl])[O]C(=O)C(C)c1ccc(CC(C)C)cc1` (stereo not drawn) the IC50 was 0.07 µM (PSN1; cell growth or viability, MTT; 72 h).
With `CC(C)(O)C(O)COc1c2ccoc2cc2oc(=O)ccc12` (single isomer, unassigned; (+)) the IC50 was 42 µM (L5178Y; cell growth or viability, MTT; 72 h).
The IC50 of `C=C[CH2][Pd-]([Cl])[Cl].Cc1cc(C)c(-n2c[n+](-c3c(C)cc(C)cc3C)c3c2-c2cccc4cccc-3c24)c(C)c1` is reported as 5 µM (PSN1; cell growth or viability, MTT; 72 h).
`CC(=O)[O][Ag]=[c]1n(C)ccn1CC(O)c1ccccc1` (stereo not drawn) gave an IC50 of > 200 µM (MCF-10A normal mammary epithelial; cytotoxicity, MTT; 72 h).
`[N-]=[N+]=NCCc1cc(CN(Cc2ccccn2)Cc2ccccn2)c(O)c(CN(Cc2ccccn2)Cc2ccccn2)c1` has an IC50 of > 100 µM (CHO-K1; cytotoxicity; 72 h).
`CCc1ccc([C@H](C)CC(=O)NC(=O)N[C@@H]2O[C@H](CO)[C@@H](O)[C@H](O)[C@H]2O)cc1` gave an IC50 of > 250 µM (L1210; cell growth or viability; 48 h).
The IC50 of `CC(C)Cc1ccc(C(C)C(=O)[O][Pt]([NH2])([NH2])([Cl])([Cl])[O]C(=O)C(Cl)Cl)cc1` (stereo not drawn) is reported as 0.08 µM (PSN1; cell growth or viability, MTT; 72 h).
With `Cc1cc(C)c([N+]#[C][Pt-]([Cl])([Cl])=[C](Nc2ccc(CN[C](Nc3c(C)cc(C)cc3C)=[Au][Cl])cc2)Nc2c(C)cc(C)cc2C)c(C)c1` the IC50 was > 100 µM (OVCAR-3; cell growth or viability).
With `C/C1=C\CC[C@@]2(C)O[C@H]2[C@H]2OC(=O)[C@@H](CSC(=S)N(C)C)[C@@H]2CC1` the IC50 was 4.8 µM (KG-1a; cell growth or viability, MTT; 72 h).
`CCOc1ccccc1-c1ccc2[nH]c3ncc(/C=C/c4ccccc4)cc3c2c1` has an IC50 of 3.8 µM (parental Ba/F3 (IL-3 dependent); cell proliferation, [3H]-thymidine incorporation).
The IC50 of `COC(=O)[C@H]1[C@H]2C[C@H]3O[C@@]4(CCN3C[C@H]2C[C@@H](OC(=O)c2cc(OC)c(OC)c(OC)c2)[C@@H]1OC)C(=O)Nc1cc(OC)c(-c2ccc(C(F)(F)F)cc2)cc14` is reported as 1.73 µM (SU-DHL-4; cell growth or viability, trypan blue; 72 h).
`COc1cc(OC)c(-c2coc3c(CC=C(C)C)c(OC)cc(O)c3c2=O)cc1OC` gave an IC50 of > 100 µM (MDA-MB-231, Huh-7, KKU100, NHDF cells; cell viability, MTT; 24 h).
For `CCc1ccc([C@H](C)CC(=O)N[C@@H]2O[C@H](CO)[C@@H](O)[C@H](O)[C@H]2O)cc1`, the IC50 was > 250 µM (L1210; cell growth or viability; 48 h).
`CNC(=S)SC[C@@H]1C(=O)O[C@H]2[C@H]1CC/C(C)=C/CC[C@@]1(C)O[C@@H]21` gave an IC50 of 8.6 µM (KG-1a; cell growth or viability, MTT; 72 h).
With `O=C(NO)c1ccc(Cn2sc3ccccc3c2=O)cc1` the IC50 was 2.5 µM (KMS-11; cell growth or viability, ATP luminescence; 72 h).
`C=C(C)[C@@H](O)COc1c2ccoc2cc2oc(=O)ccc12` gave an IC50 of 30.5 µM (L5178Y; cell growth or viability, MTT; 72 h).
The IC50 of `Cc1c(C)n(-c2c(C(C)C)cccc2C(C)C)c(=[Se])n1-c1c(C(C)C)cccc1C(C)C.[Cl][Au]` is reported as 0.3 µM (PSN1; cell growth or viability, MTT; 72 h).
The IC50 of `C=CCc1ccc(OCc2nnc(SCC(=O)Nc3ccc(Br)cc3)o2)c(OC)c1` is reported as ≤ 10 µM (MCF7, SK-OV-3, PC-3; cell growth, MTT).
With `COc1ccc2nc(NC(=O)c3ccc([C@@H](N)c4ccccc4)cc3)sc2c1` the IC50 was 0.029 µM (NCI-H2122; cell growth or viability).
With `CCC(C(=O)O)C1CCC(C)C(C(C)C(O)C(C)C(=O)C(CC)C2OC3(C=CC(NCc4cn(CCOCCOCCOC)nn4)C4(CCC(C)(C5CCC(O)(CC)C(C)O5)O4)O3)C(C)CC2C)O1` (stereo not drawn) the IC50 was 10.8 ± 0.9 µM (HMLER CD24low/CD44high; cell proliferation; 72 h).
For `CC(=O)Oc1ccccc1C(=O)[O][Pt]([NH2])([NH2])([Cl])([Cl])[O]C(=O)CCCc1ccccc1`, the IC50 was 0.09 µM (PSN1; cell growth or viability, MTT; 72 h).
`CO[C@H]1N(OC)c2ccccc2[C@@]12CN=C(Nc1cc(C(F)(F)F)cc(C(F)(F)F)c1)S2` (relative stereo) has an IC50 of 32.2 µM (HCT-116; cell growth or viability, MTS; 72 h).
With `Cc1cc(C)c([N+]#[C][Pt-]([Cl])([Cl])=[C](Nc2ccc(CN[C](Nc3c(C(C)C)cccc3C(C)C)=[Au][Cl])cc2)Nc2c(C)cc(C)cc2C)c(C)c1` the IC50 was > 100 µM (OVCAR-3; cell growth or viability).
`CC(C)c1ccc(/C=C/C(=O)NC(=O)N[C@@H]2O[C@H](CO)[C@@H](O)[C@H](O)[C@H]2O)cc1` gave an IC50 of 25 µM (L1210; cell growth or viability; 48 h).
For `COc1cccc(-c2ccc(Nc3ccc(CN(C)C)cc3)c(OC)c2F)c1`, the IC50 was 6 ± 0.3 µM (HCT-15 (KRAS G13D); cell viability, CellTiter-Glo; 72 h).
The IC50 of `CC(C)c1cccc(C(C)C)c1-n1ccn(-c2c(C(C)C)cccc2C(C)C)c1=[Se].[Cl][Ag]` is reported as 3.6 ± 0.6 µM (LoVo-OXP (oxaliplatin-resistant); MTT; 72 h).
For `CC(C)(C)N=[C](NCc1ccc(N)cc1)[AuH][Cl]`, the IC50 was > 100 µM (OVCAR-3; cell growth or viability).
`CC(C)c1cccc(C(C)C)c1N1CCN(c2c(C(C)C)cccc2C(C)C)C1=[Se].[Cl][Au]` has an IC50 of 3.4 ± 0.5 µM (LoVo-OXP (oxaliplatin-resistant); MTT; 72 h).
With `O=C1C(Cl)=C(NCCN2CCCCC2)C(=O)c2ccccc21` the IC50 was 1.07 µM (HEC-1-A; cell growth or viability, MTT; 48 h).
The IC50 of `CC(C)c1cccc(C(C)C)c1[N+]#[C][Pt-]([Cl])([Cl])=[C](Nc1cccc(CN[C](Nc2c(C(C)C)cccc2C(C)C)=[Au][Cl])c1)Nc1c(C(C)C)cccc1C(C)C` is reported as > 100 µM (OVCAR-3; cell growth or viability).
`N#Cc1c(-c2ccc(Cl)cc2)cc(-c2cccc3ccccc23)n2c(Cc3ccccc3)nnc12` has an IC50 of 0.698 µM (RKOp27; cell growth or viability, MTT; 72 h).
`[NH2][Pt]1([NH2])([Cl])([O]C(=O)C(Cl)Cl)[O]C(=O)C2(CC(=O)C2)C(=O)[O]1` has an IC50 of 57.7 µM (BGC803; cell growth or viability, MTT).
`FC(F)(F)c1n[nH]cc1-c1nc2ccc3[nH]ncc3c2c2c1CCC2` has an IC50 of 0.0661 µM (Molm13 resistant FLT3-ITD D835Y; cell growth; 72 h).
`Cn1cnc(Cn2ccc3ccc(CNCc4[nH]c5ccccc5c4C4NC(=O)c5ccc(O)cc54)cc32)c1` (stereo not drawn) has an IC50 of > 30 µM (HCT-15 (KRAS G13D); cell viability, CellTiter-Glo; 72 h).
`COc1cccc2c1C(=O)c1c(O)c3c(c(O)c1C2=O)C[C@@](O)(C(=O)CO)C[C@@H]3O[C@H]1C[C@H](N)[C@H](O)[C@H](C)O1` gave an IC50 of ~0.2 µM (H-BM1 bone marrow fibroblasts; cytotoxicity, MTT; 72 h).
`CC1OC(OCC2OC(Oc3cc(O)c4c(=O)cc(-c5ccc(O)c(O)c5)oc4c3)C(O)C(O)C2O)C(O)C(O)C1O` (stereo not drawn) gave an IC50 of > 100 µM (CEM/ADR5000 P-gp overexpressing; cell viability, resazurin reduction; 72 h).
`COc1cc(-c2nc3ccc(C(=O)NCCCN(C)C)cc3n2C2CCC2)cc(OC)c1OC` gave an IC50 of 3.26 µM (293 T-BRE-Luc; reporter gene, inhibitor; 6 h, together with: BMP6-induced BMP6 500 ng/mL).
The IC50 of `C=C[CH2][Pd-]([Cl])[Cl].CC(C)c1cccc(C(C)C)c1-n1c[n+](-c2c(C(C)C)cccc2C(C)C)c2c1-c1cccc3cccc-2c13` is reported as 5 µM (PSN1; cell growth or viability, MTT; 72 h).
For `COc1ccc(C[C@H]2COC(=O)[C@@H]2Cc2ccc(OCCCCCCCCC(=O)NO)c(OC)c2)cc1OC`, the IC50 was 1.93 µM (MV4-11; cell growth or viability, CCK-8; 48 h).
`O=c1[nH]c(=O)n([C@@H]2O[C@H](CO)[C@@H](O)[C@H](F)[C@H]2O)cc1F` has an IC50 of > 200 µM (L1210; cell growth or viability).
`FC(F)(F)c1n[nH]cc1-c1nc2ccc3[nH]ncc3c2c2c1CCCCC2` has an IC50 of 0.0137 µM (Molm13 resistant FLT3-ITD D835Y; cell growth; 72 h).
`COc1cc(N2CCN(C)CC2)ccc1Nc1ncc2c(n1)N(C)c1ccc(C)cc1C(=O)N2CC(F)(F)F` has an IC50 of > 20 µM (PaTu 8988t; cell growth or viability; 5 days, 3D culture).
With `O=C(Cc1ccc2ccccc2c1)N[C@H](Cc1ccccc1)C(=O)N[C@H](Cc1ccc(O)cc1)C(=O)N[C@H](Cc1ccccc1)C(=O)N[C@H](Cc1ccc(OP(=O)(O)O)cc1)C(=O)O` the IC50 was 132 µg/mL (SAOS-2; cell growth or viability, MTT).
The IC50 of `Cc1nc(Nc2ncc(C(=O)Nc3c(C)cccc3Cl)s2)cc(N2CCN(CCOC(=O)[C@@H](N)CCCNC(=N)N)CC2)n1` is reported as < 5.12e-05 µM (BV-173; cell growth or viability, MTT; 72 h).
`O=c1[nH]c(=O)n([C@@H]2O[C@H](CSSC[C@H]3O[C@@H](n4cc(F)c(=O)[nH]c4=O)[C@H](O)[C@@H](F)[C@@H]3O)[C@@H](O)[C@H](F)[C@H]2O)cc1F` has an IC50 of 231 µM (L1210; cell growth or viability).
`COCCNc1nc(-c2nccn2C)nc2sc(-c3cccc(OC)c3Cl)c(-c3ccccc3)c12` gave an IC50 of 1 to 3 µM (NCI-H1975 (KRAS wild type); Western blot, refers to: phospho-MEK, ERK1/2 and Akt; 6 h, together with: EGF 15 min).
`CCC(C(=O)O)C1CCC(C)C(C(C)C(O)C(C)C(=O)C(CC)C2OC3(C=CC(NCc4cn(C56CC7CC(CC(C7)C5)C6)nn4)C4(CCC(C)(C5CCC(O)(CC)C(C)O5)O4)O3)C(C)CC2C)O1` (stereo not drawn) has an IC50 of 0.03 ± 0.002 µM (HMLER CD24low/CD44high; cell proliferation; 72 h).
`CC(C)c1cccc(C(C)C)c1-n1c(Cl)c(Cl)n(-c2c(C(C)C)cccc2C(C)C)c1=[Se].[Cl][Ag]` has an IC50 of 0.6 µM (PSN1; cell growth or viability, MTT; 72 h).
For `Cc1c(O)c(-c2nc(-c3ccccc3)c(-c3ccccc3)[nH]2)cc(-c2nc(-c3ccccc3)c(-c3ccccc3)[nH]2)c1O`, the IC50 was 257 µg/mL (human foreskin fibroblasts HFF; cell viability, colorimetric; 72 h).
With `CCc1ccc([C@H](C)CC(=O)N[C@@H]2O[C@H](COC(C)=O)[C@@H](OC(C)=O)[C@H](OC(C)=O)[C@H]2OC(C)=O)cc1` the IC50 was 184 µM (L1210; cell growth or viability; 48 h).
With `[Cl][Au].[Se]=c1n(C23CC4CC(CC(C4)C2)C3)ccn1C12CC3CC(CC(C3)C1)C2` the IC50 was 4.9 ± 1.1 µM (LoVo-OXP (oxaliplatin-resistant); MTT; 72 h).
With `CCN(CC)CCCOc1ccc(-c2ccc3[nH]c4ncc(/C=C/c5ccccc5)cc4c3c2)cc1` the IC50 was 1.3 µM (parental Ba/F3 (IL-3 dependent); cell proliferation, [3H]-thymidine incorporation).
With `CC1(C)Cc2c(-c3ccccc3)c(-c3ccc(Cl)cc3)c(CC(=O)O)n2C1` the IC50 was 1.31 µM (mouse Peritoneal macrophage; PGE2 release, inhibitor; LPS-stimulated).
